{"data": "Assay results from different studies", "note": "Each line is one published result; not all experiments were run side by side. ± gives the spread as reported."}
{"Structure (SMILES)": "Cc1cccc(O[C@H]2CCC[C@@H](C(C)CNCc3ccncc3)C2)c1 (relative stereo)", "system": "C57BL/6 mouse female, brain", "setting": "oral, 25 mg/kg", "AUC(0-t)": "8270 ng·h/mL"}
{"Structure (SMILES)": "O=C(CCCCC[N+]#[C][99Tc-5]([C]#[N+]CCCCCC(=O)N[C@H]1C(O)O[C@H](CO)[C@@H](O)[C@@H]1O)([C]#[N+]CCCCCC(=O)N[C@H]1C(O)O[C@H](CO)[C@@H](O)[C@@H]1O)([C]#[N+]CCCCCC(=O)N[C@H]1C(O)O[C@H](CO)[C@@H](O)[C@@H]1O)([C]#[N+]CCCCCC(=O)N[C@H]1C(O)O[C@H](CO)[C@@H](O)[C@@H]1O)[C]#[N+]CCCCCC(=O)N[C@H]1C(O)O[C@H](CO)[C@@H](O)[C@@H]1O)N[C@H]1C(O)O[C@H](CO)[C@@H](O)[C@@H]1O (some centres unmarked)", "assay": "two-compartment model", "system": "CD-1 mouse, blood", "setting": "dose not given, 4 h", "AUC(0-t)": "236 %ID/g·min"}
{"Structure (SMILES)": "COc1ccc(NC(=O)N2CCCN3CCC(c4ccc(C#Cc5ccccc5)cc4)C3C2)cc1 (centres unmarked)", "system": "CD-1 mouse, plasma", "setting": "oral, 10 mg/kg single dose", "AUC(0-t)": "1950 ng·h/mL"}
{"Structure (SMILES)": "NC(=O)c1ccc(C(=O)NOCc2ccc(Sc3cccc(Cl)c3)c(C(F)(F)F)c2)cc1", "system": "male ICR mouse, plasma", "setting": "oral, 60 mg/kg", "AUC(0-t)": "8130 ng·h/mL"}
{"Structure (SMILES)": "CCCCCCCCCCCCCCCCCC(=O)Nc1ccn(C2OC(CO)C(O)C2(F)F)c(=O)n1 (centres unmarked)", "system": "mouse", "setting": "iv bolus, 30 mg/kg gemcitabine equivalent", "AUC(0-t)": "86200 ± 5400 ng·h/mL"}
{"Structure (SMILES)": "CC(C)(C)NCC(SS(=O)(=O)O)c1ccccc1 (centres unmarked)", "system": "Swiss Webster CFW mouse, female, plasma", "setting": "intravenous, 15 mg/kg, from 0 h to last", "AUC(0-t)": "2510 ng·h/mL"}
{"Structure (SMILES)": "COc1cccc2c1C(=O)c1c(O)c3c(c(O)c1C2=O)CC(O)(C(=O)CO)CC3OC1CC(NC(=O)C[C@H](N)C(=O)O)C(O)C(C)O1 (some centres unmarked)", "system": "healthy mouse, plasma", "setting": "intravenous, 5 mg/kg", "scale": "relative to: doxorubicin", "AUC(0-t)": "~8.14 fold"}
{"Structure (SMILES)": "Cc1ccc(OCC(=O)N(Cc2cccs2)c2ccn[nH]2)cc1", "system": "male CD-1 mouse, plasma", "setting": "oral gavage, 30 mg/kg", "AUC(0-t)": "128 ng·h/mL"}
{"Structure (SMILES)": "Cc1ccc(CNC(=O)Cc2ccc(-c3ccc(OCCN4CCOCC4)cc3)cn2)cc1", "system": "ICR mouse", "setting": "intravenous, 2 mg/kg", "AUC(0-t)": "770 ± 40 ng·h/mL"}
{"Structure (SMILES)": "C[C@@H]1Cc2c([nH]c3ccccc23)[C@@H](c2c(F)cc(/C=C/C(=O)O)cc2F)N1C12CC(C1)C2", "system": "Balb/c nude mouse, MCF7 xenograft, plasma", "setting": "oral, 5 mg/kg, steady state", "AUC(0-t)": "9900 ng·h/mL"}
{"Structure (SMILES)": "N#CC1(c2ccc3c(N)ncnn23)OC(COP(=O)(O)O)C(O)C1O (centres unmarked)", "assay": "LC-MS/MS", "system": "CD-1 mouse, kidney", "setting": "oral, 100 mg/kg of remdesivir", "AUC(0-t)": "119000 nmol·h/kg"}
{"note": "A few entries again:"}
{"Structure (SMILES)": "CCCCCCCCCCCCCCCCCC(=O)Nc1ccn(C2OC(CO)C(O)C2(F)F)c(=O)n1 (centres unmarked)", "system": "mouse", "setting": "iv bolus, 30 mg/kg gemcitabine equivalent", "AUC(0-t)": "86200 ± 5400 ng·h/mL"}
